Experimental data collected from several papers.
Each numbered part is a random draw from the data of one study; scales do not carry over between parts. Changes are numbered by the printed parent chain.
Sequence of UniProt Q05940 (whole entry, looked up): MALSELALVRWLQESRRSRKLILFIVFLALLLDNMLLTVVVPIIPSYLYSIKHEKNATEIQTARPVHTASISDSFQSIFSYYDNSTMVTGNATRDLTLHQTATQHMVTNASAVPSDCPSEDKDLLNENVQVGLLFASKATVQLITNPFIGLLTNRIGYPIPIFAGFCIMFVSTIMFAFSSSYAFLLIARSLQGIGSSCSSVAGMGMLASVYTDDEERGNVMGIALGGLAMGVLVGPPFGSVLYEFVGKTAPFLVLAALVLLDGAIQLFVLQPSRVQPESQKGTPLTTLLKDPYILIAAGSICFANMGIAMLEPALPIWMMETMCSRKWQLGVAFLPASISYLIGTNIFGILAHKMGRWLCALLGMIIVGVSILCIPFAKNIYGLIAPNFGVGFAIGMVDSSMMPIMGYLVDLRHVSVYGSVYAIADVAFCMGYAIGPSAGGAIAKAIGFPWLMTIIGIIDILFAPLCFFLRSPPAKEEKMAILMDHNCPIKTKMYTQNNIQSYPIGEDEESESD
Sequence of UniProt Q7KZI7 (whole entry, looked up): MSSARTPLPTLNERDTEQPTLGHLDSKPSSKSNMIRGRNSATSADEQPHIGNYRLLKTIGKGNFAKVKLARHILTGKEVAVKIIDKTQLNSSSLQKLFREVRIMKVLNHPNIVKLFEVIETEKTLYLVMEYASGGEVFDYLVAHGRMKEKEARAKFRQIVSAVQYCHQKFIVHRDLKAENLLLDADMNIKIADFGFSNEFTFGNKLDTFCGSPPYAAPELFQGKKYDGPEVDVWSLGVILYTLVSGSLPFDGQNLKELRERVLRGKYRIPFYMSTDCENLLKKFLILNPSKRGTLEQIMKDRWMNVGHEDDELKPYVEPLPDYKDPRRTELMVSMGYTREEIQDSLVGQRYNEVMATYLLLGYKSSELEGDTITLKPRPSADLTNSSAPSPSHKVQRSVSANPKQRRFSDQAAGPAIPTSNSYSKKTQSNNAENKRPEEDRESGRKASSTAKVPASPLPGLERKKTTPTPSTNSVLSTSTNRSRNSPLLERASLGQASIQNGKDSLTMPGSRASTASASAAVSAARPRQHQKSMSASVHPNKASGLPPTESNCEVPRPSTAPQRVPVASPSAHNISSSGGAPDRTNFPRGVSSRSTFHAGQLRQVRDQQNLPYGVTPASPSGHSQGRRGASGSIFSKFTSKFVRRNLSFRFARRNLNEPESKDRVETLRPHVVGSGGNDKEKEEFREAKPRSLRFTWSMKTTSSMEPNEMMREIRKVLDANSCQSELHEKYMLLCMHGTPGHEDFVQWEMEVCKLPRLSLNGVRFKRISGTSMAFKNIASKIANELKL

Block 1
Target: inorganic phosphate, free oxyanion
Technique: microfluidic competitive inhibition
Matrix: in vitro, cell-free expressed
Concentration: not given
Setting: derived from inhibition constants, unchanged parent 615000 nM
Reading: lower = stronger binding
Starting sequence: PafA, mature enzyme, eGFP fusion (Elizabethkingia meningoseptica, UniProt Q9KJX5); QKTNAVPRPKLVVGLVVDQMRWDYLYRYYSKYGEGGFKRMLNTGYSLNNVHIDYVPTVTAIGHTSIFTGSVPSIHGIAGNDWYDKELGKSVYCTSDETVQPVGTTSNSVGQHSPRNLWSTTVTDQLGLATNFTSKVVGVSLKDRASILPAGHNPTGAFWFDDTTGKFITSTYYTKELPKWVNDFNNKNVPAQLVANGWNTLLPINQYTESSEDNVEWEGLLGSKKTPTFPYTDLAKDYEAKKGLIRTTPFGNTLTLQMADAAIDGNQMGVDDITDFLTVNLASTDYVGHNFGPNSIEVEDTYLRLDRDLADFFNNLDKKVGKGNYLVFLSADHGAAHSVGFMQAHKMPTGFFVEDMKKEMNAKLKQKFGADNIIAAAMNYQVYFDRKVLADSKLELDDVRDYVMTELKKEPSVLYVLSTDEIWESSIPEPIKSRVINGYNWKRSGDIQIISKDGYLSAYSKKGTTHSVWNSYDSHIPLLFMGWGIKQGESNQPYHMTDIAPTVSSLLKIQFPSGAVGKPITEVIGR
Substitution	phosphate dissociation constant [µM]
K518V	589
I449G	642
S425V	643
M40G	687
K408G	628
Y383G	432
L326G	488
N294G	403

Block 2
Target: CCNF, cyclin fold, Cln2 fusion (human)
Technique: yeast growth competition, sequencing
Matrix: yeast
Setting: strong parent motif
Reference: not given
Reading: higher = stronger binding
Starting sequence: viral docking peptide; TSVRRALFTGGSD; partner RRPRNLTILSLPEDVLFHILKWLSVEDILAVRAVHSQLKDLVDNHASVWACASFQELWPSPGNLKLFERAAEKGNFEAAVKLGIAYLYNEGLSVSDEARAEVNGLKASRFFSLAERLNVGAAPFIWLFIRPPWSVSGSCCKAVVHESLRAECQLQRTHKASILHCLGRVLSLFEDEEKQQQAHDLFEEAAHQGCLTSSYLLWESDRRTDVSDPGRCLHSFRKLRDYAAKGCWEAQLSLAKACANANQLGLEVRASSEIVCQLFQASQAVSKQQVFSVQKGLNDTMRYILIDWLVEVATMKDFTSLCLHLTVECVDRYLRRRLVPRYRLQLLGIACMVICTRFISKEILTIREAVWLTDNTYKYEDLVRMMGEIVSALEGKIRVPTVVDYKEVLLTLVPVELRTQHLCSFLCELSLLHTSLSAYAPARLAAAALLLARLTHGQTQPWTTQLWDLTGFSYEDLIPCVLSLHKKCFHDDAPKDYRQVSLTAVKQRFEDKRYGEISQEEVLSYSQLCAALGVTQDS
Substitution	normalised enrichment score
TSVRRALFTLGSD [G10L]	8.67
TSVRRALFTGCSD [G11C]	8.46
TSVRRAMFTGGSD [L7M]	0.628
TSVQRALFTGGSD [R4Q]	6.9
TSVRRALGTGGSD [F8G]	0.742
TYVRRALFTGGSD [S2Y]	7.55
TSVRRALFTMGSD [G10M]	8.35
TSVRRALFTGGMD [S12M]	8.24

Further values, each from its own experiment
Substance	target	assay	conditions	how to read	endpoint	value
O=C1NC(=O)c2c1c1c3ccccc3n3c1c1c2c2ccccc2n1[C@H]1CC[C@@H]3O1	MARK2 (Homo sapiens, UniProt Q7KZI7)	enzyme activity, inhibitor	0.5 µM	reference: control	remaining activity	4.88%
mitragynine	SLC18A2 (Homo sapiens, UniProt Q05940)	–	–	–	IC50	21.5 µM

Repeated from above (block 1):
Substitution	phosphate dissociation constant [µM]
Y383G	432
S425V	643
